Measurements pooled from the literature.
Every numbered part comes from another study and shows a few of its results, in no order. Values joined by “and” are separate records of one study, mostly repeats; a detail may differ.
UniProt P42336, sequence (whole entry, unmodified, looked up): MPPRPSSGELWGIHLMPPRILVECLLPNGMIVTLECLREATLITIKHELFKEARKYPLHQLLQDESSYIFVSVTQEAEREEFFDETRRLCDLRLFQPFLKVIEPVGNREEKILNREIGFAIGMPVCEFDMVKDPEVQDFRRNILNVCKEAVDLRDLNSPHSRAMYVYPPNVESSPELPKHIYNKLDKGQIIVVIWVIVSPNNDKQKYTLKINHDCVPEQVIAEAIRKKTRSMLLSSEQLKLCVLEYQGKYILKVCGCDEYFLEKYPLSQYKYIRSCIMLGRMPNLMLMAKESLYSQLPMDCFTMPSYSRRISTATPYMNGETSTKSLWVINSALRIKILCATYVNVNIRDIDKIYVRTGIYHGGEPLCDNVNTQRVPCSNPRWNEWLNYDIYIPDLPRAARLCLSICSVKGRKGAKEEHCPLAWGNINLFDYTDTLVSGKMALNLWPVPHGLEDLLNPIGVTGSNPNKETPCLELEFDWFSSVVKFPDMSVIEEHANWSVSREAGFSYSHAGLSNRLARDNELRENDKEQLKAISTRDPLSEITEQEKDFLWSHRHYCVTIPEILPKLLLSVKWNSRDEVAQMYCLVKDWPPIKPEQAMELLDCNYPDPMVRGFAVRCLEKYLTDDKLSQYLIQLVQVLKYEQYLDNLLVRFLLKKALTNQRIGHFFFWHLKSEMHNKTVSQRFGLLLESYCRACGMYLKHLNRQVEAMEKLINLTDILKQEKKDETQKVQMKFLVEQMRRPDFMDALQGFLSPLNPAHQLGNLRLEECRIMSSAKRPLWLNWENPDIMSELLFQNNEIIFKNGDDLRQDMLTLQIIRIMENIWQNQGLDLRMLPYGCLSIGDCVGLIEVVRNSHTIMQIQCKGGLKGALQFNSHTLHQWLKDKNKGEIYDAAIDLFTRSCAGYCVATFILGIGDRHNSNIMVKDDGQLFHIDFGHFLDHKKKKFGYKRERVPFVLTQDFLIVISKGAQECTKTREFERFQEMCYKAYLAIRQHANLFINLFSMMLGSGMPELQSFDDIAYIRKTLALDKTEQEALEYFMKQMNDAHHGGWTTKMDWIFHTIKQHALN
UniProt P11309, sequence (whole entry, looked up): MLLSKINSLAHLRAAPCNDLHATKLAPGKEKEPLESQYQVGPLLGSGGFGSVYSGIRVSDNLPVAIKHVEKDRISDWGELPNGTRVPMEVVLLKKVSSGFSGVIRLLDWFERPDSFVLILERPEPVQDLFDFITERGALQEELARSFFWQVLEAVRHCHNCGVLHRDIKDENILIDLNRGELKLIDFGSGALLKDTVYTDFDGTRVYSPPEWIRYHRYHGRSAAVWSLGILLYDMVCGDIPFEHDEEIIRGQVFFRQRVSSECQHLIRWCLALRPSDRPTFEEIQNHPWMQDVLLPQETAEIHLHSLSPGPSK
UniProt Q9H3Y6, sequence (whole entry, looked up): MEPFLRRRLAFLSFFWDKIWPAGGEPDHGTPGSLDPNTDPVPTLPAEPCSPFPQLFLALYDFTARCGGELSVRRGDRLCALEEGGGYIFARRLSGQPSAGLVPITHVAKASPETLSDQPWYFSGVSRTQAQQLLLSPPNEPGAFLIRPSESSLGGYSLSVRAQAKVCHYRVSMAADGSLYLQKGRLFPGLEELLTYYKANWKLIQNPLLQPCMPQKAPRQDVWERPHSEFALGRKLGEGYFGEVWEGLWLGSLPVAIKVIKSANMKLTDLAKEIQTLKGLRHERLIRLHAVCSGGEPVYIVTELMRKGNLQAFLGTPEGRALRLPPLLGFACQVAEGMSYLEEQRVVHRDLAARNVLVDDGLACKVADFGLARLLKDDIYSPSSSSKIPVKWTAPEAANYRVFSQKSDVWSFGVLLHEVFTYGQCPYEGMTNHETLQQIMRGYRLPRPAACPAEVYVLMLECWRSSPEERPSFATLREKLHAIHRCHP
UniProt Q16816, sequence (whole entry, looked up): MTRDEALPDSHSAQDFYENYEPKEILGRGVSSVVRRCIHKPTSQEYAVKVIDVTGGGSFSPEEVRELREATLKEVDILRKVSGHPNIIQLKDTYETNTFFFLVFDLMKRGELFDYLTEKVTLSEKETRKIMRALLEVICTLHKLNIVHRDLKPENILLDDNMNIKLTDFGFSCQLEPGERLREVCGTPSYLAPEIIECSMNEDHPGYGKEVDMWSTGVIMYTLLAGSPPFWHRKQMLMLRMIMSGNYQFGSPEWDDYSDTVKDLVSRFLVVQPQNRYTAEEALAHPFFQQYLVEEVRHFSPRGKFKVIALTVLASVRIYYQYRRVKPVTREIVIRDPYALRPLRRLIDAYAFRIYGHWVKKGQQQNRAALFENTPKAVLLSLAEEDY
UniProt Q9BYP7, sequence (whole entry, looked up): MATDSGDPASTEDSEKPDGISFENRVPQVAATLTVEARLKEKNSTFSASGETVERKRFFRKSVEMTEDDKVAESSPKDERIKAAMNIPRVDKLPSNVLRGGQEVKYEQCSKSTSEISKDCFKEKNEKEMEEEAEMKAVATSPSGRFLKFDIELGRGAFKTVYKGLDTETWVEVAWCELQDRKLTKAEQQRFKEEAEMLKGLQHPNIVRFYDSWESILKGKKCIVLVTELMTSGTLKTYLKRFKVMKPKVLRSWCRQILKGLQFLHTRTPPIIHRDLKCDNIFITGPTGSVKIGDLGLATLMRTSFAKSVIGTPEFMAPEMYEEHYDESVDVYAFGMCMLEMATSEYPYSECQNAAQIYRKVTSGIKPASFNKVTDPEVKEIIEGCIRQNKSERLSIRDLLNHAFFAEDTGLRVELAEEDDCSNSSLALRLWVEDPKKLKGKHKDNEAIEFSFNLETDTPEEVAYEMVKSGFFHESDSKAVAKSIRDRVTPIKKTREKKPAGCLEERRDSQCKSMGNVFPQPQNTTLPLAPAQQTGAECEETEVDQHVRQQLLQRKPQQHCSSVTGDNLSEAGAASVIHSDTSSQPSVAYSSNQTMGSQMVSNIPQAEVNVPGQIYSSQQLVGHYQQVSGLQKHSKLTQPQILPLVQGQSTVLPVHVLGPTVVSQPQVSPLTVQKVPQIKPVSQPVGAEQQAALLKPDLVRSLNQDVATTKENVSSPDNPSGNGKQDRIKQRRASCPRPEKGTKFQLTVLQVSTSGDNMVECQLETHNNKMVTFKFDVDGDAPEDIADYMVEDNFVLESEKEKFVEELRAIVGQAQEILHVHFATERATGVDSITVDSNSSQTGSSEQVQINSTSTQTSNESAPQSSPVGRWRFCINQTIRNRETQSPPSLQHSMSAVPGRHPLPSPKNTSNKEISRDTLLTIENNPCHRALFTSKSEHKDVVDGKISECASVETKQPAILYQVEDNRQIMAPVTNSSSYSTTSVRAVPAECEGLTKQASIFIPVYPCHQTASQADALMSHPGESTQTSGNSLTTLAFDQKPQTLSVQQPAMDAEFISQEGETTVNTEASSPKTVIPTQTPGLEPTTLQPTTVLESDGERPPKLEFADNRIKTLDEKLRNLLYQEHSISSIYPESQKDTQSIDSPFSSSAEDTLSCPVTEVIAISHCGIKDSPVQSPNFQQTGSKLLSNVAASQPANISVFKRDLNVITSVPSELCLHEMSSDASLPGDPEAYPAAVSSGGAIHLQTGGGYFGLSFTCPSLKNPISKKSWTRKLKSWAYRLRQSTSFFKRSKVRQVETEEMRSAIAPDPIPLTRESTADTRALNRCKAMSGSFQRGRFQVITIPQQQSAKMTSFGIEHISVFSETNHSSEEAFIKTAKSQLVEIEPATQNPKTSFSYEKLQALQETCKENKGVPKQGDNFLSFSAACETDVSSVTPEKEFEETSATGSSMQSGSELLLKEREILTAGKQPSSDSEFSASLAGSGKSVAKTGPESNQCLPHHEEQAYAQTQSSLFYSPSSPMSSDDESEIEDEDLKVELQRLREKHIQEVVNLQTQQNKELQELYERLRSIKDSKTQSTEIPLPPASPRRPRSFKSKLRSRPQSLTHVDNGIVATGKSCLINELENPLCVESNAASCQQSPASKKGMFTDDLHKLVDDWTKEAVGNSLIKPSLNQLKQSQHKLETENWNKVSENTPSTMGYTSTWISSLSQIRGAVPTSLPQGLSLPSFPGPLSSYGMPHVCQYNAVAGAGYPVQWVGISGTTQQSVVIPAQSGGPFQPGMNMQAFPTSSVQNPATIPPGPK
UniProt O75582, sequence (whole entry, looked up): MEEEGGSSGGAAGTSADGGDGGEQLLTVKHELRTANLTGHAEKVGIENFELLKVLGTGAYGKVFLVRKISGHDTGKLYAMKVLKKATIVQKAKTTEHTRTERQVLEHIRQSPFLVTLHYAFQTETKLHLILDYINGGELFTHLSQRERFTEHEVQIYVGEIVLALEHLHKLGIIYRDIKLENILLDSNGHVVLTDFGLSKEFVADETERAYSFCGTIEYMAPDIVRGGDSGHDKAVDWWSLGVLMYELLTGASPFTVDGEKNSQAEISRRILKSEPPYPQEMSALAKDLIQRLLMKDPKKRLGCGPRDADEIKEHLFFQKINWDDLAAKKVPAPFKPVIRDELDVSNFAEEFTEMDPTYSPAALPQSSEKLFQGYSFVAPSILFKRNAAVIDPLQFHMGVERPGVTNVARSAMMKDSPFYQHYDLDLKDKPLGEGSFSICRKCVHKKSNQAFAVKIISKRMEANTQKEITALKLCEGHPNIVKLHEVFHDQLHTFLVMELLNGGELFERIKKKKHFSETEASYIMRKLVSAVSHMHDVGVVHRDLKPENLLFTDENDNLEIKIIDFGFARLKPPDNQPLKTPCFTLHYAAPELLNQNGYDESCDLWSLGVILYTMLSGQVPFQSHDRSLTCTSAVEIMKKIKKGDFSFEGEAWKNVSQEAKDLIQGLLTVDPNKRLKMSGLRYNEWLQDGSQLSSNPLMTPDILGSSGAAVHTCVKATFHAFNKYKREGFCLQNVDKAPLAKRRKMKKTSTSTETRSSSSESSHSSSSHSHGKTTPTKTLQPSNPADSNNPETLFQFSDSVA

Series 1 — observed: enzyme activity; action: inhibitor; concentration: 0.5 µM; baseline: control
Structure (SMILES): O=Nc1c(-c2c(O)[nH]c3cc(Br)ccc23)[nH]c2ccccc12
target	remaining activity [%]
RPS6KA6 (Homo sapiens, UniProt Q9UK32)	43.1
Cyclin-dependent kinase 4, with cyclin D3 (CDK4, Homo sapiens, UniProt P11802)	75.9
HIPK2 (Homo sapiens, UniProt Q9H2X6)	96.2
STK16 (Homo sapiens, UniProt O75716)	64
RPS6KA5 (Homo sapiens, UniProt O75582)	82.6
Cyclin-dependent kinase 6, with cyclin D3 (CDK6, Homo sapiens, UniProt Q00534)	25.4
STK17A (Homo sapiens, UniProt Q9UEE5)	49.2
SRMS (Homo sapiens, UniProt Q9H3Y6)	99.6
DYRK3 (Homo sapiens, UniProt O43781)	104
MAPKAPK3 (Homo sapiens, UniProt Q16644)	96.1
CAMK2B (Homo sapiens, UniProt Q13554)	65.8
EPHB1 (Homo sapiens, UniProt P54762)	72.3
PHKG1 (Homo sapiens, UniProt Q16816)	41.8
TSSK2 (Homo sapiens, UniProt Q96PF2)	101
BLK (Homo sapiens, UniProt P51451)	11.3
HIPK4 (Homo sapiens, UniProt Q8NE63)	106
WNK3 (Homo sapiens, UniProt Q9BYP7)	93.8
Cyclin-dependent kinase 1, with cyclin B (CDK1, Homo sapiens, UniProt P06493)	50.5
AXL (Homo sapiens, UniProt P30530)	57.7
EPHA4 (Homo sapiens, UniProt P54764)	90.2
PDPK1 (Homo sapiens, UniProt O15530)	86.4
EPHB4 (Homo sapiens, UniProt P54760)	78.5

Series 2 — species: C57BL/6 CES1-/- mice, EL4 tumour; route: subcutaneous; dose: 0.3 mg/kg/day DON equivalent; time: 5 days
Compound: CC(=O)N[C@@H](Cc1c[nH]c2ccccc12)C(=O)N[C@@H](CCC(=O)C=[N+]=[N-])C(=O)OC(C)C
technique	item	cell line	matrix	notes	reading	metabolite peak intensity
UPLC-MS/MS	3-(4-hydroxyphenyl)lactate	–	EL4 tumour	–	–	1.74e+06 a.u. and 1.51e+06 a.u. and 1.24e+06 a.u. and 785000 a.u. and 1.43e+06 a.u. and 600000 a.u.
UPLC-MS/MS metabolomics	N1-methyl-2-pyridone-5-carboxamide	–	EL4 tumour	normalised to tissue mass	higher = more metabolite	554000 a.u. and 507000 a.u. and 898000 a.u. and 774000 a.u. and 576000 a.u. and 920000 a.u.
LC-MS/MS metabolomics	2'-deoxycytidine	–	EL4 tumour	normalised to tissue mass	higher = more metabolite	2.52e+07 a.u. and 3.62e+07 a.u. and 3.56e+07 a.u. and 3.9e+07 a.u. and 6.02e+07 a.u. and 3.6e+07 a.u.
UPLC-MS/MS	kynurenine	EL4	tumour	normalised to tissue mass	higher = more metabolite	2.37e+06 a.u. and 2.46e+06 a.u. and 2.75e+06 a.u. and 1.23e+06 a.u. and 2.84e+06 a.u. and 1.35e+06 a.u.
UPLC-MS/MS	imidazole propionate	EL4	tumour	normalised to tissue mass	higher = more metabolite	598000 a.u. and 690000 a.u. and 643000 a.u. and 614000 a.u. and 925000 a.u. and 1.45e+06 a.u.
UPLC-MS/MS	5-oxoproline	–	EL4 tumour	–	–	9.89e+06 a.u. and 8.84e+06 a.u. and 6.41e+06 a.u. and 1.05e+07 a.u. and 9.08e+06 a.u. and 1.19e+07 a.u.
UPLC-MS/MS	5-hydroxyindoleacetate	–	EL4 tumour	–	–	73700 a.u. and 69400 a.u. and 47500 a.u. and 130000 a.u. and 33400 a.u.
UPLC-MS/MS	5-aminovalerate	–	EL4 tumour	–	–	1.41e+07 a.u. and 1.88e+07 a.u. and 1.87e+07 a.u. and 1.4e+07 a.u. and 1.36e+07 a.u. and 1.25e+07 a.u.

Series 3 — cell line: HaCaT; concentration: 100 µM; time: 60 h
Compound	viability [%]
CC(=O)NCCCS(=O)(=O)O	127
CCOc1nc2cccc(C(=O)OC(C)OC(=O)OC3CCCCC3)c2n1Cc1ccc(-c2ccccc2-c2nnn[nH]2)cc1 (centres unmarked)	18
NS(=O)(=O)c1cc2c(cc1Cl)N=C(CSCc1ccccc1)NS2(=O)=O	130
N=C(N)N	143
Clc1ccc(C(Cn2ccnc2)OCc2c(Cl)cccc2Cl)c(Cl)c1 (centres unmarked)	89.3
Cc1cccc(C)c1OCC(C)N (centres unmarked)	111
O=C1CCc2cc(OCCCCc3nnnn3C3CCCCC3)ccc2N1	134
Cc1c(NC(=O)c2cccnc2)c(=O)n(-c2ccccc2)n1C	144
NCCCC(N)(C(=O)O)C(F)F (centres unmarked)	110
CC(=O)Nc1c(I)c(NC(C)=O)c(I)c(C(=O)O)c1I	153

Series 4 — observed: cell-free assay; technique: competition with immobilised ligand; concentration: 0.1 µM
SMILES: CS(=O)(=O)N1CCCC(NC(=O)[C@H](CCC2CCCCC2)NC(=O)c2ccc(CNC(=O)c3cnc4ccccn34)cc2)C1 (some centres unmarked)
target	remaining binding [%]
PIM1 (Homo sapiens, UniProt P11309)	89
PIK3CA (Homo sapiens, UniProt P42336, E542K)	78
IGF1R (Homo sapiens, UniProt P08069)	73
CDK15 (Homo sapiens, UniProt Q96Q40)	95
MAPK12 (Homo sapiens, UniProt P53778)	100
IKBKB (Homo sapiens, UniProt O14920)	100
OXSR1 (Homo sapiens, UniProt O95747)	94
IRAK1 (Homo sapiens, UniProt P51617)	100
KIT (Homo sapiens, UniProt P10721, D816V)	100
CDK14 (Homo sapiens, UniProt O94921)	100
CAMK2A (Homo sapiens, UniProt Q9UQM7)	100
MAP4K4 (Homo sapiens, UniProt O95819)	100
Tyrosine-protein kinase ABL1, phosphorylated (ABL1, Homo sapiens, UniProt P00519, T315I)	100
NEK1 (Homo sapiens, UniProt Q96PY6)	68
PIK3CA (Homo sapiens, UniProt P42336, E545K)	86
CDKL5 (Homo sapiens, UniProt O76039)	100
TNK2 (Homo sapiens, UniProt Q07912)	70
Insulin receptor (INSR, Homo sapiens, UniProt P06213)	100
eIF-2-alpha kinase GCN2, C-terminal kinase domain (EIF2AK4, Homo sapiens, UniProt Q9P2K8, S808G)	100
FGFR3 (Homo sapiens, UniProt P22607, G697C)	86
PKN2 (Homo sapiens, UniProt Q16513)	100
STK35 (Homo sapiens, UniProt Q8TDR2)	100

Excerpt of the above (series 4):
target	remaining binding [%]
CDK15 (Homo sapiens, UniProt Q96Q40)	95
PIK3CA (Homo sapiens, UniProt P42336, E542K)	78
eIF-2-alpha kinase GCN2, C-terminal kinase domain (EIF2AK4, Homo sapiens, UniProt Q9P2K8, S808G)	100
OXSR1 (Homo sapiens, UniProt O95747)	94
NEK1 (Homo sapiens, UniProt Q96PY6)	68
STK35 (Homo sapiens, UniProt Q8TDR2)	100
IGF1R (Homo sapiens, UniProt P08069)	73
PIM1 (Homo sapiens, UniProt P11309)	89
IRAK1 (Homo sapiens, UniProt P51617)	100
